Measurements collected from several papers.
A part holds a random share of what one study measured.

Series 1
Target: Ras GTPase-activating protein-binding protein 1, RRM domain (G3BP1, Homo sapiens, UniProt Q13283)
Sequence of UniProt Q13283 (whole entry, looked up): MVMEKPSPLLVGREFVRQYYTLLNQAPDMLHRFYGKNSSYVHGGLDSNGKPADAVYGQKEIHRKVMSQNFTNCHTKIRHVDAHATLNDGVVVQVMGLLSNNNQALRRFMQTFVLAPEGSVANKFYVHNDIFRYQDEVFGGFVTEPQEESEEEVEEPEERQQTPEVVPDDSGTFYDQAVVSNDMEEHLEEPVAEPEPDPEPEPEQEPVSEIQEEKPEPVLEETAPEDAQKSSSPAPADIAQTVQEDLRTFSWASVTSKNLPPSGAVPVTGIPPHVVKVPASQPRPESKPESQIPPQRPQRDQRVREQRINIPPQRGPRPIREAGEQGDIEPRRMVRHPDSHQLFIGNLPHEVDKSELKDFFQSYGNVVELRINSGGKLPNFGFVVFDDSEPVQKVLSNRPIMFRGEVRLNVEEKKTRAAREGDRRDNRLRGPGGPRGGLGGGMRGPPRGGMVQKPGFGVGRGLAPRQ
Technique: RNA Bind-n-Seq
Molecule type: RNA
Matrix: in vitro
Tested at: 1 µM
Setting: whole 134-nt RNA, ends assumed
With: 150 mM KCl
Reference: input library
Direction: higher = stronger binding
Constant ends, left off below: GGGAGUUCUACAGUCCGACGAUC … UGGAAUUCUCGGGUGUCAAGG
For `UGGGAGGUGGAUUUUGUUUAUUUUUUUAGCUCAUUUCCAGGGGUGGGAAUUUUUUGUUAAUAUGUGUCAUGAAUAAAGUUGUUUUUGAAA`, the log2 enrichment was 1.37.
For `AGUCCUGUGCUACACAUCGUAUGUACCGAAUCGGGAAAAAAAGGGUUUUUGGGUGGGAAAGUAUUAUGUUACGCCGUUCGGAUCUGCACU`, the log2 enrichment was 0.646.
`AAGUCCUGUGCUACACAUCGUAUGUACCGAAUCGGGAAAGGGAAAAAAAGGGAGGGAAAGUAUUAUGUUACGCCGUUCGGAUCUGCACUU` gave a log2 enrichment of 0.673.
`AGUCCUGUGCUACACAUCGUAUGUACCGAAUCGGAAAAAGGGAAAAAGGGGAAAAAGGAAAGUAUUAUGUUACGCCGUUCGGAUCUGCAC` gave a log2 enrichment of 0.0121.
`ACCAUGCAGGUGGGCAUCUUUGGGAAGUGGGGCAAGGGGGGGAUAGGGAGGGGGGUAACACUUUGGGAACAGGUGGUACCAGGUCGUUUC` gave a log2 enrichment of 1.3.
For `CUGUGCUACACAUCGUAUGUACCGAAUCGGGGAAAAAAAGGGGUUUUUGGGGUUUUUGGGGAAAGUAUUAUGUUACGCCGUUCGGAUCUG`, the log2 enrichment was 1.02.
The log2 enrichment of `UCAAGUCCUGUGCUACACAUCGUAUGUACCGAAUCGGGAAGGGGAAGGGAAGGGGAAAGUAUUAUGUUACGCCGUUCGGAUCUGCACUUC` is reported as 1.05.
`CUGUGCUACACAUCGUAUGUACCGAAUCGGGGUUUUUUUGGGUUUUUUUGGGGUUUUUUUGGAAAGUAUUAUGUUACGCCGUUCGGAUCU` gave a log2 enrichment of -0.212.
With `UAAGUUUAGAGGAGGAUCUGAUGGAUAUGGCAGUGGACGUGGAUUUGGGGAUGGCUAUAAUGGGUAUGGAGGAGGACCUGGAGGUGGCAA` the log2 enrichment was -0.347.
`UGGGAGGUGGAUUUUGUUUAUUUUUUUAGUUCAUUUCCAGGGGUGGGAAUUUUUUUUUAAUAUGUGUCAUGAAUAAAGUUGUUUUUGAAA` gave a log2 enrichment of 1.6.

Series 2
Target: Interferon regulatory factor 7, full length, phosphomimetic (IRF7, Homo sapiens, UniProt Q92985, residues 1-503, S101K/S471D/S472D/S475D/S476D/S477D/S483D/S484D/S487D)
Technique: protein-binding microarray
Molecule type: double-stranded DNA, one strand shown
Matrix: in vitro
Tested at: 250 nM
Setting: 60-bp whole probe
With: salmon DNA 0.4 mg/ml
Reference: random background probes
Direction: higher = stronger binding
Constant ends, left off below: GCCTAGCAC … GTCTTGATTCGCTTGACGCTGCTG
Construct (chain): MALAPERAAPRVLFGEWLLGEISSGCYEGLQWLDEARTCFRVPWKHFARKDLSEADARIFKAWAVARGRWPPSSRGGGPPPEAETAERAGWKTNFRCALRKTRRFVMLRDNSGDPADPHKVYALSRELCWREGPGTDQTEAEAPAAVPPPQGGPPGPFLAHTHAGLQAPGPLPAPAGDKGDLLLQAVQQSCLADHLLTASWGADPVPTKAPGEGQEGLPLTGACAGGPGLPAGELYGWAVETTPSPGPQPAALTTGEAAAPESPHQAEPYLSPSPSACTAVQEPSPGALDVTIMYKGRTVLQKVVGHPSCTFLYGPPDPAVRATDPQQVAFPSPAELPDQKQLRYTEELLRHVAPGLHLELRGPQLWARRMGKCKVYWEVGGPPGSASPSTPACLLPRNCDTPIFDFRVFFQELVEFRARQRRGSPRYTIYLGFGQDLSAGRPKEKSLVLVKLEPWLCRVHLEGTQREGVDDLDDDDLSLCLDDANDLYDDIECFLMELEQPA
`TTACATTTCGGGTATCGATTAGTGCTA` has a log fluorescence of 1.82 z-score.
The log fluorescence of `GACGGTATCGGGACCGGGGACGTGCTA` is reported as -0.256 z-score.
`TTAGGTATCCTCCTCCTTTAGTGCTAG` gave a log fluorescence of 0.0382 z-score.
`TTAGGTTTCCTTTCCCTTTCGTGCTAG` has a log fluorescence of 4.5 z-score.
The log fluorescence of `ACTGCATTCCCTTTCTCAACGTGCTAG` is reported as 0.984 z-score.
`TTAGGACTGCTTCTCGTTTAGTGCTAG` gave a log fluorescence of 1.09 z-score.
`GCCGATATCGGGACTGGAGACGTGCTA` gave a log fluorescence of -0.0136 z-score.
For `GACTGTCTCCTACTGCTGACGTGCTAG`, the log fluorescence was 0.136 z-score.
For `GACGGACTGGATTTCGGGACGTGCTAG`, the log fluorescence was -0.325 z-score.
`TTAGGTATCGGGACTGGATTAGTGCTA` gave a log fluorescence of 0.21 z-score.
`GACGGTATCGGTTTCGGAACGTGCTAG` gave a log fluorescence of 8.93 z-score.
With `TCATACTTCACTCTCTGACTGTGCTAG` the log fluorescence was 0.281 z-score.
`TTAGATATCGGGTTTCGATCAGTGCTA` has a log fluorescence of 2.8 z-score.
With `TTAGGTATCGGACTGGGGTAGTGCTAG` the log fluorescence was 0.000126 z-score.
For `AACGGACTGGGGACTGGGGACGTGCTA`, the log fluorescence was -0.346 z-score.
For `TTAGATCACAGTTTCGATTAGTGCTAG`, the log fluorescence was 8.43 z-score.
The log fluorescence of `TTAGGTGTCGGTTTCGGTTAGTGCTAG` is reported as 7.88 z-score.
With `GACGGTCTCGGTTTCGGTACGTGCTAG` the log fluorescence was 9.06 z-score.
`TCATTTTTAATGAATGAAACTGTGCTA` has a log fluorescence of 0.719 z-score.
With `GACGGTTTCCTTTCGCTGACGTGCTAG` the log fluorescence was 7.39 z-score.
`TTAGGATTGGGGTATCGGTTAGTGCTA` gave a log fluorescence of 0.584 z-score.
`TTAGGAGTGGACTTTCGGTTAGTGCTA` gave a log fluorescence of 0.242 z-score.
`GATGGTATCCTTCTCCTGACGTGCTAG` has a log fluorescence of 0.0865 z-score.
The log fluorescence of `GACGATATCGGGACTGGTGACGTGCTA` is reported as -0.365 z-score.
The log fluorescence of `TTAGGACTCGGACTGGGTTAGTGCTAG` is reported as 0.472 z-score.

Series 3
Target: RNA binding protein fox-1 homolog 2, RRM domain, GST-SBP tag (RBFOX2, Homo sapiens, UniProt O43251-10, residues 100-194)
Technique: RNA Bind-n-Seq
Molecule type: RNA
Matrix: in vitro
Tested at: 365 nM
Setting: natural RNA segment, single round, ends assumed
Reference: no-protein control
Direction: higher = stronger binding
Constant ends, left off below: GGGAGUUCUACAGUCCGACGAUC … UGGAAUUCUCGGGUGCCAA
Residues (chain): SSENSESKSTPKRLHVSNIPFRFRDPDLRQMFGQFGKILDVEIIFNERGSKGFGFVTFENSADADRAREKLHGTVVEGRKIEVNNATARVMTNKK
`CUCACCUAGAUUACACUCAAUUGAUACCCACUCAUGAAGAUUUUGCUGAGAUUUUAUGAUUCCAGGUUCAGGGGUGAGAAGGAUUCUGGUACCUGAUACCUGUUGGAGAU` — result for “RBNS enrichment (R)”: 0.621.
`UGUUAGAAACAAAGCUAAAAUUUUAACAUGAUUAAUAAUAGAGAAGUUGGGUUUGGUUCUGUUGUUAUGAUUGUUUUGUCGUGGUGCUUGUGUUCAGUUAUAUUCUCUCU`: “RBNS enrichment (R)” 1.56.
For `AGAAACCAAAGCUGAGUGUUUUAAAGAAUGAACAUAUCUGGAAAUCCUUGCUCUCAAAACAAAACAAUAUAAUCUAUCAAAGGUGUUUUACUCAGUGUUCUAAUUUUUAA`, “RBNS enrichment (R)” read 0.674.
Under “RBNS enrichment (R)”, `CACAAGGUCAGGAGAUCAAGACCAUCCUGGCUAACACGGUGAAACCCUGUCUCUACUAAAAAUACAAAAAUUAGCCGGGCGUGGUGGCGGGCGCCUGUAGUCCCAGCUAC` is recorded as 0.345.
`GGUGGCCUGGUCCGCGGAGGGUGCACCUGCCCUCCACAGUGGGAGCUGCAUGGGCCUCCACACCACCUUGGGAACCCCAUGGCACUGCCCUUCAGGGAAGCCGACCAGCC`: “RBNS enrichment (R)” 0.547.
For `GCGGGACAGGCAAGAGACGUUCGUUCCAAGAGGAUUCUCAUAAGGGAAGUGACGGUUCUUAGAGGAGAAAAGCAAAAGGCUUGGGAGAUCCACAUGGCCUGUCCCCGUGA`, “RBNS enrichment (R)” read 0.81.
Under “RBNS enrichment (R)”, `UGUGAAGAGAUGGACAGUCUCAUCAGAAAUGUGGUUGUAUAAUGGUGAGCGCCACAUGAGUGUAGAGGCACUAUAUGACGUAGUGUACUGAGCAUGCAACGCUGCUGCCG` is recorded as 1.7.
Under “RBNS enrichment (R)”, `CCAAUUCCCCAGGGAAGGAAACUGUUGUGUCCAAUCCCCAUUAAAGACAAAUUGAUCAGUGCUUCCCACUCCAAGUCAAGCUUUAUGCAGGAAUGCUUUUCCAUCAGGGA` is recorded as 0.405.
`AUGUGACUUUGGGCGAGUCUCAGUGCCACUUGGUCCCCAGCCAUGGACUCUAUACAGUGAGGGCCACUCACCGACCUGAGUCAGUGUCCUCUGUCUCACAGGGCCCCUCU` — result for “RBNS enrichment (R)”: 0.192.
`CGACUUUUGUUUGUGUUACAUGACUUCUGUGACUUCAUUGAAAAUCUGCACAAUUCAGUUUCAGCUCUGGAUUACUUCAGUUGACCUUUGUGAAGGUUUUUAUCUGUGUA` — result for “RBNS enrichment (R)”: 0.379.
Under “RBNS enrichment (R)”, `CUUUCAGUUGGAGAGGCAGGUUGCUUUAAUGUCACUCUGACCUGCGUUGUUUGACUAUUUUAUAAUUUUGUUAUUAAAACAUCCAGGGUGAUUUCAUCUUUGUUCCUAGA` is recorded as 0.813.
`UAUGUUUUCCAUUUUCUUUUGUCAGAGGUGAGCUUGAAUGUGAUUAUCUGUAAAUUUGCUCAAAUAAUAAGAUAAUGUACAACACUAAUAGCCAGAUAUGAGUUUAAACU` — result for “RBNS enrichment (R)”: 0.943.

Series 4
Target: Histone acetyltransferase KAT6A, winged helix 2, GST fusion (KAT6A, Homo sapiens, UniProt Q92794, residues 85-181)
Technique: protein binding microarray
Molecule type: double-stranded DNA, one strand shown
Matrix: in vitro
Tested at: not given
Setting: 8-mer, flanks averaged, mean of 2 arrays, mostly near background
Reference: not given
Direction: higher = stronger binding
Construct (chain): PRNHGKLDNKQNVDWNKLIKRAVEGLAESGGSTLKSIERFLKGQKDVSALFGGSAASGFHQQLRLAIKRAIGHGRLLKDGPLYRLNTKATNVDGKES
`GTCAAGAC` has an E-score of -0.162.
`ACATCATA` gave an E-score of 0.0895.
For `AGGCCGCC`, the E-score was 0.0532.
`ACACGATG` has an E-score of -0.125.
`TAACTTCA` gave an E-score of 0.0417.
`CTTCGCAA` gave an E-score of 0.00606.
For `AGGGAGTC`, the E-score was -0.0155.
`AATAAACA` gave an E-score of 0.0731.
`CCACATGG` has an E-score of -0.0384.
`AGTTTCAG` gave an E-score of -0.0702.
`ATGTACAC` has an E-score of -0.0938.
`ACCGTCAG` gave an E-score of 0.0696.
`ACTTGCTA` gave an E-score of -0.0589.
`ACCACGGT` gave an E-score of -0.205.
With `AGCGCTTA` the E-score was -0.00992.
`GGCCATAC` has an E-score of -0.0131.
The E-score of `AAGGGTTA` is reported as -0.155.
`CAACCTTA` has an E-score of -0.108.
For `GTGTTATA`, the E-score was 0.123.
With `CGCCCAAA` the E-score was 0.17.
With `CCGATGGC` the E-score was 0.0292.
For `AAACTGAC`, the E-score was 0.00284.
The E-score of `GATCGTAA` is reported as -0.113.
For `AACGCCTA`, the E-score was -0.124.
`AGAGAACA` gave an E-score of 0.0926.

Repeated from above (series 3):
Under “RBNS enrichment (R)”, `UGUGAAGAGAUGGACAGUCUCAUCAGAAAUGUGGUUGUAUAAUGGUGAGCGCCACAUGAGUGUAGAGGCACUAUAUGACGUAGUGUACUGAGCAUGCAACGCUGCUGCCG` is recorded as 1.7.
`CUCACCUAGAUUACACUCAAUUGAUACCCACUCAUGAAGAUUUUGCUGAGAUUUUAUGAUUCCAGGUUCAGGGGUGAGAAGGAUUCUGGUACCUGAUACCUGUUGGAGAU` — result for “RBNS enrichment (R)”: 0.621.
`UAUGUUUUCCAUUUUCUUUUGUCAGAGGUGAGCUUGAAUGUGAUUAUCUGUAAAUUUGCUCAAAUAAUAAGAUAAUGUACAACACUAAUAGCCAGAUAUGAGUUUAAACU` — result for “RBNS enrichment (R)”: 0.943.
Under “RBNS enrichment (R)”, `CCAAUUCCCCAGGGAAGGAAACUGUUGUGUCCAAUCCCCAUUAAAGACAAAUUGAUCAGUGCUUCCCACUCCAAGUCAAGCUUUAUGCAGGAAUGCUUUUCCAUCAGGGA` is recorded as 0.405.
`AUGUGACUUUGGGCGAGUCUCAGUGCCACUUGGUCCCCAGCCAUGGACUCUAUACAGUGAGGGCCACUCACCGACCUGAGUCAGUGUCCUCUGUCUCACAGGGCCCCUCU` — result for “RBNS enrichment (R)”: 0.192.
`UGUUAGAAACAAAGCUAAAAUUUUAACAUGAUUAAUAAUAGAGAAGUUGGGUUUGGUUCUGUUGUUAUGAUUGUUUUGUCGUGGUGCUUGUGUUCAGUUAUAUUCUCUCU`: “RBNS enrichment (R)” 1.56.
`GGUGGCCUGGUCCGCGGAGGGUGCACCUGCCCUCCACAGUGGGAGCUGCAUGGGCCUCCACACCACCUUGGGAACCCCAUGGCACUGCCCUUCAGGGAAGCCGACCAGCC`: “RBNS enrichment (R)” 0.547.
